{"data": "Results from different studies", "CDC25B": "M-phase inducer phosphatase 2 (CDC25B, Homo sapiens, UniProt P30305)", "note": "Each line is one published result; not all experiments were run side by side.", "sequence of UniProt P30305 (whole entry, looked up)": "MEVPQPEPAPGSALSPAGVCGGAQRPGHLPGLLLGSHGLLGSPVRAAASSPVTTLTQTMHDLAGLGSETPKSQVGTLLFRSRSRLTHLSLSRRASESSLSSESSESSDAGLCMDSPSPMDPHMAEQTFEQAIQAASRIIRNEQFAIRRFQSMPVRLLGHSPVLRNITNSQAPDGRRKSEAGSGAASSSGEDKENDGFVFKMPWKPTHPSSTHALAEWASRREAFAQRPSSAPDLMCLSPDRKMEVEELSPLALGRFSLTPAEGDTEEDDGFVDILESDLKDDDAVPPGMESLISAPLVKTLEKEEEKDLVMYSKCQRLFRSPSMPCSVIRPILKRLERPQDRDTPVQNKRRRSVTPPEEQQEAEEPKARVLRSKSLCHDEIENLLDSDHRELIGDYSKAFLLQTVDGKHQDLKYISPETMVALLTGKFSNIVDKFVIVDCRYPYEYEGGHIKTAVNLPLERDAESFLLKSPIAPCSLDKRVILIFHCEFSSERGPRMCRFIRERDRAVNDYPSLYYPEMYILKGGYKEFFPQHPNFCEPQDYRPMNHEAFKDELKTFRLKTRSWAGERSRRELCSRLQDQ", "sequence of UniProt P05979 (whole entry, looked up)": "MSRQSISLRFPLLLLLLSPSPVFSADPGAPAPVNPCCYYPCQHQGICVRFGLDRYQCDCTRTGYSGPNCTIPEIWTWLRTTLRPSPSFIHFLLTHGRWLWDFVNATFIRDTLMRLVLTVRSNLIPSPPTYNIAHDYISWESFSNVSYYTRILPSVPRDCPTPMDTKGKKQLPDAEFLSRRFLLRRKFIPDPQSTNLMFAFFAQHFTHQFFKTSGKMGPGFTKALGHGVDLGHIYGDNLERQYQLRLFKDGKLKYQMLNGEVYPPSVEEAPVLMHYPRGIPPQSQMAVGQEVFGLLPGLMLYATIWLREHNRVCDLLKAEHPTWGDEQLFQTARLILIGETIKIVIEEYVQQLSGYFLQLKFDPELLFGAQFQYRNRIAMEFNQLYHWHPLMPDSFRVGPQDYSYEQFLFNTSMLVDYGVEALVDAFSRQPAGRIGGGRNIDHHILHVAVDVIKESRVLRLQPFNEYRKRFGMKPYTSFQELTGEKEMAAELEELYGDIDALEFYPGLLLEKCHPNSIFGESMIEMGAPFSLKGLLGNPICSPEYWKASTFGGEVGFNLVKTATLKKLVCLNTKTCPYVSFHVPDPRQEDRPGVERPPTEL", "sequence of UniProt Q16288 (whole entry, looked up)": "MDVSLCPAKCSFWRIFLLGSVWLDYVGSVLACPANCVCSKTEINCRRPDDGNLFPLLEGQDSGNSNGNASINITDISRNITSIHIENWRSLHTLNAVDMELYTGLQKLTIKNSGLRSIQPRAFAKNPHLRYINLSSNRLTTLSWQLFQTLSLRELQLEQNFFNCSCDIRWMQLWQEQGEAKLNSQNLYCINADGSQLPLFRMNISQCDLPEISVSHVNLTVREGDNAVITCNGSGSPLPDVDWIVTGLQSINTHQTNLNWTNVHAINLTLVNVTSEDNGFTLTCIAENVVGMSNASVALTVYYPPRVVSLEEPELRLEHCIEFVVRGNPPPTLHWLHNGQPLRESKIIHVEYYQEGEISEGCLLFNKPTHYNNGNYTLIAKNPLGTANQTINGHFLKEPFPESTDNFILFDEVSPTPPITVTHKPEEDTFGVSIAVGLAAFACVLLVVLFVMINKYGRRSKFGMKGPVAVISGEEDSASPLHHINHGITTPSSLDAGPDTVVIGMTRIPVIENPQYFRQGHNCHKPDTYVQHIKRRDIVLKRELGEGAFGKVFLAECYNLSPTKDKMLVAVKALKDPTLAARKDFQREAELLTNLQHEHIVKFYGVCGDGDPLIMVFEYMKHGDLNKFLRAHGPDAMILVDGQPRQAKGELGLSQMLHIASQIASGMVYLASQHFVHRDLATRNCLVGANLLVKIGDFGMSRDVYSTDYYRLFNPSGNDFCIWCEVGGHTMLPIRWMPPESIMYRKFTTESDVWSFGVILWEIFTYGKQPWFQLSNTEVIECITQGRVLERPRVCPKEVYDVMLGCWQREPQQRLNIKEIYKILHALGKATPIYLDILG", "sequence of UniProt Q9UK17 (whole entry, looked up)": "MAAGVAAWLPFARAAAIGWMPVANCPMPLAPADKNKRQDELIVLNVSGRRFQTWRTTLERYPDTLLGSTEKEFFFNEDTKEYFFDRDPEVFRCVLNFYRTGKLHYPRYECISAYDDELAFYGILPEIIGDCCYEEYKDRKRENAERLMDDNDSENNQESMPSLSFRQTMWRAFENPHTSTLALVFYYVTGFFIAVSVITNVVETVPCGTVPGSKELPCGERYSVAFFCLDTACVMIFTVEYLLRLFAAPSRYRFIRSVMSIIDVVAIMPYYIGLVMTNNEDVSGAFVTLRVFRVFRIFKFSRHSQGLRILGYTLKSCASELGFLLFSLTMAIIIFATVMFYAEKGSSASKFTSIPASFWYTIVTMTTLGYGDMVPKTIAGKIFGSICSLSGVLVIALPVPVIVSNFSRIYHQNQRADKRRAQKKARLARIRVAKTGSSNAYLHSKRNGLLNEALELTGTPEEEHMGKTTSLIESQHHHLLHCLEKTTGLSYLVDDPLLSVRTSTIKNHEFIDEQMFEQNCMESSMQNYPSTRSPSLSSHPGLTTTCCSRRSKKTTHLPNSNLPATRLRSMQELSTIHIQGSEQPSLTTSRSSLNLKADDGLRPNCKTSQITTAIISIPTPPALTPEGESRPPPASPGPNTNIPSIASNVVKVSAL", "sequence of UniProt P49961 (whole entry, looked up)": "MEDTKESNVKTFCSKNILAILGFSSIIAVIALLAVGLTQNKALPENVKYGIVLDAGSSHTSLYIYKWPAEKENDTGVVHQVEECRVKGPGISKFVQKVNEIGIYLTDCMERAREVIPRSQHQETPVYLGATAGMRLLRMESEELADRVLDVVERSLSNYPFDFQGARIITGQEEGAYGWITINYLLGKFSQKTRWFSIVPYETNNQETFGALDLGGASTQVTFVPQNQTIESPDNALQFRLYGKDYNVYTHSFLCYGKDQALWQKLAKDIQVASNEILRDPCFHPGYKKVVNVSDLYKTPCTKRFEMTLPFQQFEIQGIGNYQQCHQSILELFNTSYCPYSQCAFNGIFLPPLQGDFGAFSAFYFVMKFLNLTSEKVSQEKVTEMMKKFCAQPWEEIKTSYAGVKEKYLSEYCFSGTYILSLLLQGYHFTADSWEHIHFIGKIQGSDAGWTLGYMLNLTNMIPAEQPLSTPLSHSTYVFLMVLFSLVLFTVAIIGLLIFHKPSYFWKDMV", "sequence of UniProt P54290 (whole entry, looked up)": "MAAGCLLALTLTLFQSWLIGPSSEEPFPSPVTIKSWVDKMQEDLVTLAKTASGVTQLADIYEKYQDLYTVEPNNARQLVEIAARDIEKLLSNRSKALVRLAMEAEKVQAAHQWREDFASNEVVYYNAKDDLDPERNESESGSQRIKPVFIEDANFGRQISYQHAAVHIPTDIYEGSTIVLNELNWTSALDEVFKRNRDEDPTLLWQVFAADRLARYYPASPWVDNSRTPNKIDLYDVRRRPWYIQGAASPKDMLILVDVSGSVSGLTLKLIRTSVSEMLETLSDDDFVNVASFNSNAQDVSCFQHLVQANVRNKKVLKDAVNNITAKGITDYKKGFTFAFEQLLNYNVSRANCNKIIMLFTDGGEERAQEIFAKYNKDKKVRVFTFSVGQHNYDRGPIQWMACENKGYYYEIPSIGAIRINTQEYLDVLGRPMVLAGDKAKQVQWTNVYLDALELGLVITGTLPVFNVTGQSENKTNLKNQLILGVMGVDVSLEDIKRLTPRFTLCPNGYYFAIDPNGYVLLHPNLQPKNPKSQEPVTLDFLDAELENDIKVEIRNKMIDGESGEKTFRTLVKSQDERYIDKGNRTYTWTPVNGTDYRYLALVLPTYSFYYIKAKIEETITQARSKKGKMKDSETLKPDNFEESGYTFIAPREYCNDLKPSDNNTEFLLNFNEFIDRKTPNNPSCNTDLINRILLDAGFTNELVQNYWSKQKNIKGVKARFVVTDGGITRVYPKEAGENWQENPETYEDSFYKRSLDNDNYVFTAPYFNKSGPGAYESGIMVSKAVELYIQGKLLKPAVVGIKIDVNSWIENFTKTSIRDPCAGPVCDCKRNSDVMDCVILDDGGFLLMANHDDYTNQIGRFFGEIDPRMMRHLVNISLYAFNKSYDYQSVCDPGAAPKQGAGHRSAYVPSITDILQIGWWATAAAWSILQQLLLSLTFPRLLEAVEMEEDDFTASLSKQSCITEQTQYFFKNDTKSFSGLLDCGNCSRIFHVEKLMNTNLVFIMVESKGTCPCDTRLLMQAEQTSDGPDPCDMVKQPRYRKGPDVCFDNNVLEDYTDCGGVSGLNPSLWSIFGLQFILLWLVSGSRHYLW", "sequence of UniProt P35462 (whole entry, looked up)": "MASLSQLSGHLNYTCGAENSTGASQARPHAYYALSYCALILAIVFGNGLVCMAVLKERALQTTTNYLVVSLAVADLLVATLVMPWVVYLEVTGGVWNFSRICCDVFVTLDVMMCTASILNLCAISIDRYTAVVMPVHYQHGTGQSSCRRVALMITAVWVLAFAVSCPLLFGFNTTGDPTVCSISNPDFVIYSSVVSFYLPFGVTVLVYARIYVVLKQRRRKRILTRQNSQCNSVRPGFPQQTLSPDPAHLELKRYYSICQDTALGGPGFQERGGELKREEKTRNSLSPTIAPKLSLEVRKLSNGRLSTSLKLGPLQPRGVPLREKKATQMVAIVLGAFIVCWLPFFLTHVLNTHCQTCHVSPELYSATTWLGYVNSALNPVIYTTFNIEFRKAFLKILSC"}
{"SMILES": "Oc1cc(O)c2c(c1)O[C@H](c1cc(O)c(O)c(O)c1)[C@H](O)C2", "target": "Si (Rattus norvegicus, UniProt P23739)", "assay": "enzyme activity, inhibitor", "test system": "rat intestinal brush border vesicles", "setting": "10 µM", "inhibition [%]": 84.6}
{"SMILES": "O=C(Nc1cccc(C(=O)Nc2ccc3[nH]ncc3c2)c1)Nc1cc(C(F)(F)F)ccc1F", "target": "NTRK3 (Homo sapiens, UniProt Q16288)", "assay": "enzyme activity, inhibitor, FRET", "setting": "1 µM", "inhibition [%]": 4.59}
{"SMILES": "O=C(NC1CCCC1)c1cccc(S(=O)(=O)NC2CCCC2)c1", "target": "Ectonucleoside triphosphate diphosphohydrolase 1 (Homo sapiens, UniProt P49961)", "assay": "enzyme activity, inhibitor, absorbance", "setting": "100 µM", "inhibition [%]": 17}
{"SMILES": "Cc1ccc(Nc2nc(SCc3cn(Cc4ccccc4Cl)nn3)nc(-c3ccccc3)c2C#N)cc1", "target": "KDM1A (Homo sapiens, UniProt O60341)", "assay": "enzyme activity, inhibitor, fluorescence", "setting": "1 µM", "inhibition [%]": 21.3}
{"SMILES": "C[C@@H](N)C1CCN(S(=O)(=O)c2cccc3c(=O)[nH]ccc23)CC1", "target": "CLK1 (Homo sapiens, UniProt P49759)", "assay": "cell-free assay, competition with immobilised ligand", "setting": "10 µM", "inhibition [%]": "> 95"}
{"SMILES": "COc1cc(OC)c2c(=O)[nH]c(-c3ccc(C4CCCNC4)cc3)nc2c1 (centres unmarked)", "target": "PARP1 (Homo sapiens, UniProt P09874)", "assay": "enzyme activity, inhibitor, ELISA", "setting": "10 µM", "inhibition [%]": 30}
{"SMILES": "CC(=O)c1cnc(N)nc1N1CC[C@H]1c1nn2ccc(Cl)c2c(=O)n1-c1ccccc1", "target": "KCND3 (Homo sapiens, UniProt Q9UK17)", "assay": "ion current, inhibitor", "setting": "3 µM", "inhibition [%]": "< 10"}
{"SMILES": "Cn1c(=O)c(SCC(=O)NCCN2CCC(Cc3ccccc3)CC2)nc2ccccc21", "target": "DRD3 (Homo sapiens, UniProt P35462)", "assay": "cell-free assay, inhibitor", "setting": "10 µM", "inhibition [%]": "> 90"}
{"SMILES": "C[Si](C)(C)C[C@@H](CN)CC(=O)O", "target": "Voltage-dependent calcium channel subunit alpha-2/delta-1 (Rattus norvegicus, UniProt P54290)", "assay": "[3H]gabapentin binding", "test system": "rat cerebral cortex membranes", "setting": "75 µM", "inhibition [%]": 78}
{"SMILES": "O=C(NCc1cn([C@H]2O[C@H](CO)[C@@H](O)[C@H](O)[C@H]2O)nn1)c1ccccc1", "target": "GAA (Homo sapiens, UniProt P10253)", "assay": "enzyme activity, inhibitor, fluorescence", "setting": "1.43 mM, pH 4, lysate", "inhibition [%]": 47}
{"SMILES": "COc1cc(C(=O)NC2CCC(N3CCN(CC4CCC5(CCCC5)C4)CC3)CC2)c(F)cc1Nc1ncc2c(n1)N(C1CCCC1(F)F)CC(F)(F)C(=O)N2C (centres unmarked)", "target": "FES (Homo sapiens, UniProt P07332)", "assay": "cell-free assay, TR-FRET", "setting": "10 µM", "inhibition [%]": 4.79}
{"SMILES": "N[C@H]1CCCc2c1[nH]c1ccc(Cl)cc21", "target": "HTR1A (Homo sapiens, UniProt P08908)", "assay": "ligand displacement, radioligand", "setting": "10 µM", "inhibition [%]": 13.2}
{"SMILES": "C=CC(C)(C)c1[nH]c2ccccc2c1C1=C(O)C(=O)C(c2c[nH]c3c(CC=C(C)C)cccc23)=C(O)C1=O", "target": "Trypanothione synthetase (Trypanosoma cruzi, UniProt Q9GT49)", "assay": "enzyme activity, inhibitor, absorbance", "setting": "25 µM", "inhibition [%]": 27.7}
{"SMILES": "COCCSc1nc(N)c2c(F)c(F)c(C#N)c(F)c2n1", "target": "CDC25B", "assay": "enzyme activity, inhibitor, fluorescence", "setting": "20 µg/mL", "inhibition [%]": 78}
{"SMILES": "CCCC[C@H](C)/C=C(C)/C=C/C(=O)O", "target": "TRPA1 (Homo sapiens, UniProt O75762)", "assay": "calcium signal, fluorescence", "test system": "HEK-293T", "setting": "10 µM", "inhibition [%]": "> 50"}
{"SMILES": "CCCCCCCCSc1nc(N)c2c(F)c(C#N)c(F)c(F)c2n1", "target": "CDC25B", "assay": "enzyme activity, inhibitor, fluorescence", "setting": "20 µg/mL", "inhibition [%]": 99.7}
{"SMILES": "O=[N+]([O-])c1cccc(S(=O)(=O)NC[C@@H](O)[C@@H]2CCc3cc(F)ccc3O2)c1", "target": "PTGS1 (Ovis aries, UniProt P05979)", "assay": "enzyme activity, inhibitor, absorbance", "setting": "200 µM", "inhibition [%]": 71.1}
{"note": "A few entries again:"}
{"SMILES": "O=C(Nc1cccc(C(=O)Nc2ccc3[nH]ncc3c2)c1)Nc1cc(C(F)(F)F)ccc1F", "target": "NTRK3 (Homo sapiens, UniProt Q16288)", "assay": "enzyme activity, inhibitor, FRET", "setting": "1 µM", "inhibition [%]": 4.59}
{"SMILES": "O=C(NC1CCCC1)c1cccc(S(=O)(=O)NC2CCCC2)c1", "target": "Ectonucleoside triphosphate diphosphohydrolase 1 (Homo sapiens, UniProt P49961)", "assay": "enzyme activity, inhibitor, absorbance", "setting": "100 µM", "inhibition [%]": 17}
